Published values pooled from the literature.
Every numbered part comes from another study and shows a few of its results, in no order.
Sequence of UniProt Q9Y2H1 (whole entry, looked up): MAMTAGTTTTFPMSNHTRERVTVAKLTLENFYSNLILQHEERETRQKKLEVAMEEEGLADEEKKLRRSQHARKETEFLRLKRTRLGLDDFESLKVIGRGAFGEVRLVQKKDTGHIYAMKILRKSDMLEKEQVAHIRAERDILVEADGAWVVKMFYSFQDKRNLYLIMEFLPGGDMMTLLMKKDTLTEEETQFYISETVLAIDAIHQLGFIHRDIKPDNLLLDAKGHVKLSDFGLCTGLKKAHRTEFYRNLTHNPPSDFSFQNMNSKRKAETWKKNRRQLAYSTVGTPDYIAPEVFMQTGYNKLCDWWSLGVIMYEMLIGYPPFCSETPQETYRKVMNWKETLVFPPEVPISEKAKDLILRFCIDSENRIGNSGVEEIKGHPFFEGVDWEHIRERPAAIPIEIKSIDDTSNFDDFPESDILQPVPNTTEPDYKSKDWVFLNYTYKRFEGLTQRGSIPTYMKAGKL
Sequence of UniProt Q8TF76 (whole entry, looked up): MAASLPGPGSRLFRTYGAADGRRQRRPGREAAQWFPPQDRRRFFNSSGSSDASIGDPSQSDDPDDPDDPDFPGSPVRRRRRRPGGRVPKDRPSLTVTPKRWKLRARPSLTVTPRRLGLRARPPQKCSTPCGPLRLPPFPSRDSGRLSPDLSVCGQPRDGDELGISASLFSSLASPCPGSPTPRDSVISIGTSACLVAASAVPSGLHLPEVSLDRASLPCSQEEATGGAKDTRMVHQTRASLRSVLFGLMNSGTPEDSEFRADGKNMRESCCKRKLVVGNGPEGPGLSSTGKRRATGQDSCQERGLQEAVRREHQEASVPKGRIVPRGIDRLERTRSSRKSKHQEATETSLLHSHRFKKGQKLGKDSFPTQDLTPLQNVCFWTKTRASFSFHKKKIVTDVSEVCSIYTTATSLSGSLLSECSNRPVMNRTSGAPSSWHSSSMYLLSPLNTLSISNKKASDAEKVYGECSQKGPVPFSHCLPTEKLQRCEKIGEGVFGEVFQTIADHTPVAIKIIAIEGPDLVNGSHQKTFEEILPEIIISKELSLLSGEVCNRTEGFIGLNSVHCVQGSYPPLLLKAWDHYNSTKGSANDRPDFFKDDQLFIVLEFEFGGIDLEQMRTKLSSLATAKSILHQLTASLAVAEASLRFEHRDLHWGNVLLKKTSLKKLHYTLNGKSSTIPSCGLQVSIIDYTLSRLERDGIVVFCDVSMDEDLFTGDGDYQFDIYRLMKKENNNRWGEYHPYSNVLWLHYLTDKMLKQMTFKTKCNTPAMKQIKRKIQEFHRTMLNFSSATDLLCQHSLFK
Sequence of UniProt P08069 (whole entry, looked up): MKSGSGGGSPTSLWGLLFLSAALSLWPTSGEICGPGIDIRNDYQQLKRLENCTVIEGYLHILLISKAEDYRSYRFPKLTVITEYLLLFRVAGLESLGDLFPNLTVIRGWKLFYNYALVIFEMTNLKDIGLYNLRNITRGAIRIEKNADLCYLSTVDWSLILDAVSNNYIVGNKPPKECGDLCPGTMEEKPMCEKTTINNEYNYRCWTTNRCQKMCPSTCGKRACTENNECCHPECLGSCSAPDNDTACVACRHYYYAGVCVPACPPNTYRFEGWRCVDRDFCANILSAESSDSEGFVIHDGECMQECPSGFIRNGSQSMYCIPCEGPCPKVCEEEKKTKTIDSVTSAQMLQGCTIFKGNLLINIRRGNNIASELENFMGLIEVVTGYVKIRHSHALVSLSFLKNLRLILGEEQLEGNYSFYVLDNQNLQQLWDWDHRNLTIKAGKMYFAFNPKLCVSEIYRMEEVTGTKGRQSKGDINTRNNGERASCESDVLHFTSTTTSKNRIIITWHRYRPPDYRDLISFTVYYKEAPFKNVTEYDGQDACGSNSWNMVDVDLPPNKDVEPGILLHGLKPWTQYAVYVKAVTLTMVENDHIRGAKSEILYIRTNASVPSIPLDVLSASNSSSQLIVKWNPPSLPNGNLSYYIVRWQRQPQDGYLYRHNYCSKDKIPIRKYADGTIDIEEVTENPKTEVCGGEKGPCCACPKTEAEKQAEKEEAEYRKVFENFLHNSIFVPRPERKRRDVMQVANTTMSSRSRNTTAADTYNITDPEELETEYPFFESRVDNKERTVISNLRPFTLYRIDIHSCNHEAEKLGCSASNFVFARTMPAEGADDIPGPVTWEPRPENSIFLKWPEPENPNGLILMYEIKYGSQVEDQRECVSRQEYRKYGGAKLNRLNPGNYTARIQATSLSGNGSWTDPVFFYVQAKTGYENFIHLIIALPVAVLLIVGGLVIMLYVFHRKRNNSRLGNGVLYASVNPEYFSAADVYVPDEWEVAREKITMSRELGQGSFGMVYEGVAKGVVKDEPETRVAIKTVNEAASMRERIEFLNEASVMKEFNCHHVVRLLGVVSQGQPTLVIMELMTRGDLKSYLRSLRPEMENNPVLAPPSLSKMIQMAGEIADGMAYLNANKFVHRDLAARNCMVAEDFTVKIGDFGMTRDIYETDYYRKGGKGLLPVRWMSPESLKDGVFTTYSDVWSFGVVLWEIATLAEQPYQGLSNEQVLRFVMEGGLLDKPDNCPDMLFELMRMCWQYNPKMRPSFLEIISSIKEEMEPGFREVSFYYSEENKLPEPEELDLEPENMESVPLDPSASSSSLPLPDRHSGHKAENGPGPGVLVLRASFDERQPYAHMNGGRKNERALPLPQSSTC
Sequence of UniProt P36894 (whole entry, looked up): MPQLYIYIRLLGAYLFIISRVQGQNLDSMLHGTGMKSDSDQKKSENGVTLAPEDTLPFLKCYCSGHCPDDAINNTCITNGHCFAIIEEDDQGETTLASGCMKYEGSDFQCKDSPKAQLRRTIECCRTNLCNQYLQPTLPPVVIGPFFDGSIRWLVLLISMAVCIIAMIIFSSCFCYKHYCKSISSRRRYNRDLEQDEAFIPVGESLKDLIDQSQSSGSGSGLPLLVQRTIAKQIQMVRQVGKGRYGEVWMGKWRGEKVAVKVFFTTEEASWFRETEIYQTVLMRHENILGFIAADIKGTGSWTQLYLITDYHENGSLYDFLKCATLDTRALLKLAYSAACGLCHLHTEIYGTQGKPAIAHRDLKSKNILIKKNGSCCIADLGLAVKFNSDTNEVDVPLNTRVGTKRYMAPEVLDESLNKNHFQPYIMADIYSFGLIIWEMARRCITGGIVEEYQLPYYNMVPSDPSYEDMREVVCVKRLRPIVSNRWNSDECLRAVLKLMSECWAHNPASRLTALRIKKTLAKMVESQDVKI
Sequence of UniProt Q02763 (whole entry, looked up): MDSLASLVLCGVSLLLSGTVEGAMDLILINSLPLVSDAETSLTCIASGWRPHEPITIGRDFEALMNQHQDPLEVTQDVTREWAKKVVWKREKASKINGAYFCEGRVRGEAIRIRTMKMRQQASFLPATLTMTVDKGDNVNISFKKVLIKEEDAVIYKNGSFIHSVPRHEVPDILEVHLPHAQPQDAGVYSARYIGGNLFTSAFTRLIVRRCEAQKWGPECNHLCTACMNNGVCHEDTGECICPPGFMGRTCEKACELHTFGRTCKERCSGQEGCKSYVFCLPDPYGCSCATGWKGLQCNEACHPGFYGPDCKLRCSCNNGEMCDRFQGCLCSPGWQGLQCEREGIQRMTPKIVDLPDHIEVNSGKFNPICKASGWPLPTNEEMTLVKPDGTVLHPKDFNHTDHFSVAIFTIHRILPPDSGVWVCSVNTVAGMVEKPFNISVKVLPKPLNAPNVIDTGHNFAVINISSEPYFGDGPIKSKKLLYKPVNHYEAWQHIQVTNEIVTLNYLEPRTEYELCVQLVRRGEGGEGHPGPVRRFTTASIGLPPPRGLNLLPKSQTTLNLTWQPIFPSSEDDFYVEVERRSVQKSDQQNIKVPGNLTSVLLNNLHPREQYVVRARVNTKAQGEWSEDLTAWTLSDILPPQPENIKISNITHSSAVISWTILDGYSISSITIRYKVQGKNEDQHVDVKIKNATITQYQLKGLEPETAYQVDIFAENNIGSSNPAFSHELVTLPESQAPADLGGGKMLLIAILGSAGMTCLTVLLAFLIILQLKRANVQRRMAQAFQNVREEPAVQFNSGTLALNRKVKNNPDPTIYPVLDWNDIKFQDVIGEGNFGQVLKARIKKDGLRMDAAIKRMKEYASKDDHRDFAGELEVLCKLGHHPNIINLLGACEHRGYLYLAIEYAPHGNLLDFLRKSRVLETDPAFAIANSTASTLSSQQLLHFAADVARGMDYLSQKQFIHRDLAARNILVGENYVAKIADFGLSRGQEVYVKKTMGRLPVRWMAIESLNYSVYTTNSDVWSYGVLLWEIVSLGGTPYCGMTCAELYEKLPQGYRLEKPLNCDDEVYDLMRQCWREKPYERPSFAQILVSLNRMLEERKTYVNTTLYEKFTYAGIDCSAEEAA

Sample 1
Target: Interferon regulatory factor 7, full length, phosphomimetic (IRF7, Homo sapiens, UniProt Q92985, residues 1-503, S101K/S471D/S472D/S475D/S476D/S477D/S483D/S484D/S487D)
Method: protein-binding microarray
Molecule type: double-stranded DNA, one strand shown
Medium: in vitro
Tested at: 250 nM
Notes: 60-bp whole probe
Added: salmon DNA 0.4 mg/ml
Reference: random background probes
Direction: higher = stronger binding
Quantity: log fluorescence
All sequences stand within: GCCTAGCAC … GTCTTGATTCGCTTGACGCTGCTG
Residues (chain): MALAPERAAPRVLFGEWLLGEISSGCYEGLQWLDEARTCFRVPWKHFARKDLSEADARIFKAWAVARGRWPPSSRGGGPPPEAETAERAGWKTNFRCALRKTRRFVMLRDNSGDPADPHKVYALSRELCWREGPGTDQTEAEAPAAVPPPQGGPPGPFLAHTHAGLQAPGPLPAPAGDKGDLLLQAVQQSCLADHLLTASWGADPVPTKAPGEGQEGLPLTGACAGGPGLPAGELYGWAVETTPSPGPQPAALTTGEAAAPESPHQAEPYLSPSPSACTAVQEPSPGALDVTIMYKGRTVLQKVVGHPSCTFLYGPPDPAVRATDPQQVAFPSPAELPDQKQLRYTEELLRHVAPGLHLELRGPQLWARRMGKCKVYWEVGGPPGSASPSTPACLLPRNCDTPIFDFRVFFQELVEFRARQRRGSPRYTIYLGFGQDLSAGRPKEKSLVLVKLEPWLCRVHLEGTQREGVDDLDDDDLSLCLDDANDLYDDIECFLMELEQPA
TCATGAGTCCCTATCTCACTGTGCTAG: -0.169 z-score
TGTGCTTTCCTCGTGATGCTGTGCTAG: 0.591 z-score
GACGGTATCCGTCTCGGGACGTGCTAG: -0.102 z-score
CTCACTCTAATCTCACTCTGTGTGCTA: 0.359 z-score
TCGAGTCTGCAACATGGGACTGTGCTA: 0.0781 z-score
TTAGGTTTCCTTCTCCATTAGTGCTAG: 2.44 z-score
TTAGGTTTCGACTTTCGGGTAGTGCTA: 10.8 z-score
TCAAAGATTCCTCTCACACTGTGCTAG: 0.434 z-score

Sample 2
Target: RNA binding protein fox-1 homolog 2, RRM domain, GST-SBP tag (RBFOX2, Homo sapiens, UniProt O43251-10, residues 100-194)
Method: RNA Bind-n-Seq
Molecule type: RNA
Medium: in vitro
Tested at: 365 nM
Notes: natural RNA segment, single round, ends assumed
Reference: no-protein control
Direction: higher = stronger binding
Quantity: RBNS enrichment (R)
All sequences stand within: GGGAGUUCUACAGUCCGACGAUC … UGGAAUUCUCGGGUGCCAA
Residues (chain): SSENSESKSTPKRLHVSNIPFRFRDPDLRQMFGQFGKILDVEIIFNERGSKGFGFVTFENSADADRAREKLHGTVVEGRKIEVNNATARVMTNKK
CUUGAGUGCCACCCCCAGGGAAGAACAUAAAGGGUUGCACAAUGCCACCCAUCCACUCCUUGCCAAGUGUUACCCAGAUGGUGGAGGAUGUGAAGGGAUUGCACCAAGCC: 0.389
GACUUUAUUGGAAUCUGGAGAGUUUAACUGCCUUCUCUUGGUCUCCUCACUUACUUCUUAUGAAGUUGGCAUUACCUGAGACUCUUAGCUGUGAUUAGGUACAAGCUUAC: 0.443
ACUUGGGACCAGAUCAGCUCUGCAUCCUUCAUUCUUCCCUCUGUCUCUAUUACGCAAUGUUCCGAAGUUAAAACCCACCAUCCUGCCGCUCAAGAAGACUGACCGGUACG: 0.888
CAUCCUCCCUCCUGCCCCACCCCCACCCAAAGAAUCUAUGCGUCAGCUCAGGACGUGGGGCCGAUCUGUGUGAGUCCAGCAUGUACCUGUGUCCCCCGUAGUAUCCCCGC: 5.07
UGCCCAGUGAAAGACCUCAAGUCUGCCUCCAGCCAUGCCCAAGGCAGGAACCCUGGAAGAGAAGCGCACAUUUGGGAAGAGCACAUGCAGAUCCAGGCCUGUGGCUCGGC: 0.6
UUAAGCUGAGAAGCACCAAGUCUGACCACCCGUGUGUUGAUGACUUGCAGUCAAUUAACUAUGUGUGCUGCUUCGUGCAACAGGAGAAAGCCAGAAGAGCAGCCUCGGGA: 0.279
GUCCAAGGAAGGGGCCUGGUGGUGCUCCACUUGCAGUUCUUUAAAGAAUGCUGCUUUUUAUUCUCCUAACCCUUUCAAGUGGGUGCAGACUUCUCGUUAGCAGCUGGAAG: 0.598
UUCAACUUUACAAUUGGUCUGUUGGGGUAUUAAAUGAAUUUGUGACUUAGGAUAUUUUCAUUUAUGAUGGGUUUAUCAGGAAGUAACCCCAUGGUAAGUUGAGGCAUAUC: 0.984

Sample 3
Target: G protein-coupled receptor kinase 6 (GRK6, Homo sapiens, UniProt P43250)
Sequence of UniProt P43250 (whole entry, looked up): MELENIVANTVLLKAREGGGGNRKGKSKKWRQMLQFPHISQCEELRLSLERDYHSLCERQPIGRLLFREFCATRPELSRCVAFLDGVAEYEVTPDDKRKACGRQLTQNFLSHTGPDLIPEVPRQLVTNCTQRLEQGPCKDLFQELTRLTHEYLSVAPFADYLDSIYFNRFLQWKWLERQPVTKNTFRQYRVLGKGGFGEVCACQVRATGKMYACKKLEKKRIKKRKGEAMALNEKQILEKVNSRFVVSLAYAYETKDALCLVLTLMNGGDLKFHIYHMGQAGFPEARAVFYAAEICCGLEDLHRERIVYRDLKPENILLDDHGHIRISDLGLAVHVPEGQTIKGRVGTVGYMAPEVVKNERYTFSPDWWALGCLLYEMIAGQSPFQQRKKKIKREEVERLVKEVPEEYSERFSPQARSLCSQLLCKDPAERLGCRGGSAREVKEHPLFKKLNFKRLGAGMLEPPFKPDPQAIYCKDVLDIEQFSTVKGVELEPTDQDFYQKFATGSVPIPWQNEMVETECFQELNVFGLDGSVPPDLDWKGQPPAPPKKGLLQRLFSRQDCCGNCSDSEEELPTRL
Read-out: enzyme activity
Action: inhibitor
Tested at: 0.5 µM
Reference: control
Quantity: remaining activity
COc1cc2nccc(Oc3ccc(NC(=S)NC(=O)c4ccccc4C)cc3)c2cc1OC: 91%
Nc1ncnc2n[nH]c(Nc3ccc(F)cc3)c12: 103%
Nc1ccc2ncnc(NCCc3ccc(Oc4ccccc4)cc3)c2c1: 99.3%
COc1ccc(CNC(=O)Nc2ncc([N+](=O)[O-])s2)cc1: 99.6%
O=C1NC(=O)C(c2cn(CCCO)c3ncccc23)=C1c1cnccn1: 102%
Cn1sc(=O)n(Cc2ccccc2)c1=O: 104%
CC(C)[C@H](CO)Nc1nc(Nc2cc(N)cc(Cl)c2)c2ncn(C(C)C)c2n1: 72.1%
CNC(=O)c1cc(Oc2ccc(NC(=O)Nc3ccc(Cl)c(C(F)(F)F)c3)cc2)ccn1: 107%
N#CC(C#N)=C(N)/C(C#N)=C/c1ccc(O)cc1: 107%
O=S(=O)(c1cccc2cnccc12)N1CCCNCC1: 95.4%
COc1cc2ncnc(Nc3ccc(Oc4ccccc4)cc3)c2cc1OC: 99.6%
Oc1ccc(-c2nc(-c3ccncc3)c(-c3ccc(F)cc3)[nH]2)cc1: 99.7%

Sample 4
Compound: O=C(N[C@H]1CCCCC/C=C\C2C[C@@]2(C(=O)O)NC(=O)[C@@H]2C[C@@H](Oc3ccncc3)CN2C1=O)OC1CCCC1 (some centres unmarked)
Method: competition with immobilised ligand
Tested at: 1 µM
Quantity: remaining binding
Casein kinase II subunit alpha (CSNK2A1, Homo sapiens, UniProt P68400); cell-free assay: 83%
Serine/threonine-protein kinase 38-like (STK38L, Homo sapiens, UniProt Q9Y2H1); binding: 80%
Insulin-like growth factor 1 receptor (IGF1R, Homo sapiens, UniProt P08069); cell-free assay: 96%
Serine/threonine-protein kinase haspin (HASPIN, Homo sapiens, UniProt Q8TF76); binding: 100%
Bone morphogenetic protein receptor type-1A (BMPR1A, Homo sapiens, UniProt P36894); binding: 100%
Mast/stem cell growth factor receptor Kit, autoinhibited (KIT, Homo sapiens, UniProt P10721); binding: 84%
Serine/threonine-protein kinase DCLK3 (DCLK3, Homo sapiens, UniProt Q9C098); binding: 100%
Angiopoietin-1 receptor (TEK, Homo sapiens, UniProt Q02763); cell-free assay: 100%
Dual specificity protein kinase CLK4 (CLK4, Homo sapiens, UniProt Q9HAZ1); binding: 93%
Muscle, skeletal receptor tyrosine-protein kinase (MUSK, Homo sapiens, UniProt O15146); binding: 100%

Some of these lines once more (sample 2):
CAUCCUCCCUCCUGCCCCACCCCCACCCAAAGAAUCUAUGCGUCAGCUCAGGACGUGGGGCCGAUCUGUGUGAGUCCAGCAUGUACCUGUGUCCCCCGUAGUAUCCCCGC: 5.07
UUCAACUUUACAAUUGGUCUGUUGGGGUAUUAAAUGAAUUUGUGACUUAGGAUAUUUUCAUUUAUGAUGGGUUUAUCAGGAAGUAACCCCAUGGUAAGUUGAGGCAUAUC: 0.984
UUAAGCUGAGAAGCACCAAGUCUGACCACCCGUGUGUUGAUGACUUGCAGUCAAUUAACUAUGUGUGCUGCUUCGUGCAACAGGAGAAAGCCAGAAGAGCAGCCUCGGGA: 0.279
ACUUGGGACCAGAUCAGCUCUGCAUCCUUCAUUCUUCCCUCUGUCUCUAUUACGCAAUGUUCCGAAGUUAAAACCCACCAUCCUGCCGCUCAAGAAGACUGACCGGUACG: 0.888
GACUUUAUUGGAAUCUGGAGAGUUUAACUGCCUUCUCUUGGUCUCCUCACUUACUUCUUAUGAAGUUGGCAUUACCUGAGACUCUUAGCUGUGAUUAGGUACAAGCUUAC: 0.443
CUUGAGUGCCACCCCCAGGGAAGAACAUAAAGGGUUGCACAAUGCCACCCAUCCACUCCUUGCCAAGUGUUACCCAGAUGGUGGAGGAUGUGAAGGGAUUGCACCAAGCC: 0.389
